Experimental data pooled from the literature.
Compare with care: the assays were run in different laboratories. Several values in a cell are separate wells, animals, samples, runs or records. Numbers after ± are the reported error.

| Compound | cell line | assay | system | conditions | how to read | endpoint | value |
| --- | --- | --- | --- | --- | --- | --- | --- |
| N#Cc1c(NC(=O)c2cccc3ccccc23)sc2c1CCCC2 | HeLa expressing Ub(G76V)-GFP | Ub(G76V)-GFP degradation, cycloheximide chase |  | 12 µM |  | inhibition | 29% |
| COc1cc2c(Oc3ccc(NC(=O)C4(C(=O)Nc5ccc(F)cc5)CC4)cc3F)ccnc2cc1OCCCN1CCOCC1 | hiPSC cardiomyocytes | CellTiter-Glo |  | concentration not given, 24 h | baseline: vehicle | ATP level | 112% |
| Cn1cc(Nc2nccc(-c3ccc4c(c3)CN(C3COC3)CC[C@H]4NC(=O)c3cn(C(C)(C)C)nn3)n2)cn1 | mouse splenic B cells | measured: Apoptosis signalling |  | 30 mg/kg, IgD-activated in vivo | baseline: vehicle, direction not given | pathway activation z-score | -0.218 |
| NC(=O)c1cccc(-c2cc(Nc3ccc(OC(F)(F)F)cc3)ncn2)c1 | HeLa expressing Ub(G76V)-GFP | Ub(G76V)-GFP degradation, inhibitor, cycloheximide chase |  | 12 µM |  | inhibition | 17% |
| C=CCn1c(=O)c2cnc(Nc3ccc(N4CCN(C)CC4)cc3)nc2n1-c1ccc2c(n1)[C@@](O)(CC)CC2 | Kuramochi | flow cytometry |  | concentration not given |  | EdU-negative S phase cells | 9.41% |
| C[C@H]1[C@@H](O)O[C@@H]2O[C@@]3(C)CC[C@H]4[C@H](C)CC[C@@H]1[C@@]24OO3 | THP-1 | annexin V/PI flow cytometry, measured: annexin V-/PI+ |  | 0.4 µM, 24 h |  | necrotic cells | 0.1% |
| O=C(O)CCNc1cc(N2CCc3ccccc3CC2)nc(-c2ccccn2)n1 | HBL-1 |  |  | 1 µM, 120 h |  | viability | 101% |
| O=C(NO)c1ccc(Cn2cnc3c(Nc4cccc([N+](=O)[O-])c4)ncnc32)cc1 | NB4-R2 venetoclax-resistant cells | cell viability, MTT |  | 48 h, together with: venetoclax |  | sensitizing concentration | 1.25 µM |
| O=C(C[C@@H](C(F)F)n1ccc(F)n1)N1CCC(O)(Cn2cnc3c(cnn3-c3ccc(F)cc3)c2=O)CC1 | CHP-212 resistant cells (pooled) | PI flow cytometry |  | 1 µM, 24 h |  | cells in G2/M phase | 11.5% and 15.3% and 8.97% |
| c1ccc2c(CCNc3ccc(Nc4ccncc4)cc3)c[nH]c2c1 | BT-12 | cell viability, MTT |  | 10 µM, 72 h |  | inhibition | 93% |
| CN(C)C/C=C/C(=O)Nc1cc2c(Nc3ccc(F)c(Cl)c3)ncnc2cc1O[C@H]1CCOC1 | KB-C2 spheroids |  |  | 3 µM, day 12, single dose |  | spheroid volume | 13 ± 0.8 mm³ |
| CC(C)C[C@H](NC(=O)CNC(=O)c1cc(Cl)ccc1Cl)B1OC(=O)C(CC(=O)O)(CC(=O)O)O1 | BT-12 | cell viability, MTT |  | 10 µM, 72 h |  | inhibition | 95.4% |
| CC(C)NCC(O)c1ccc(O)c(O)c1 (stereo not drawn) | mouse ventricular cardiomyocytes |  |  | dose not given, 0.311 s |  | sarcomere length | 1.8 µm |
| COc1cc(Nc2ncc(F)c(Nc3ccc4c(n3)N(COP(=O)(O)O)C(=O)C(C)(C)O4)n2)cc(OC)c1OC | BT-12 | cell viability, MTT |  | 10 µM, 72 h |  | inhibition | 85.6% |
| Cc1cc(=O)oc2cc(NC(=O)CCCCCCC(=O)NO)ccc12 | HBL-1 |  |  | 0.1 µM, 120 h |  | viability | 106% |
| C=CC(=O)N1CCC(COCC(=O)N2CCN(c3nc(-c4cnc(N)nc4C(F)F)nc(N4CCOC[C@@H]4C)n3)CC2)CC1 | A2058 | resazurin growth rate inhibition |  | 72 h |  | GR50 | 2690 nM |
| COc1cc2c(Oc3ccc(NC(=O)C4(C(=O)Nc5ccc(F)cc5)CC4)cc3F)ccnc2cc1OCCCN1CCOCC1 | BT-12 | cell viability, MTT |  | 10 µM, 72 h |  | inhibition | 95.4% |
| CC1(C)CN(CCCCC(=O)N[C@@H](CCC(=O)O)C(=O)N[C@@H](CCC(=O)O)C(=O)N[C@H](CCCCNC(=O)CCCCCCC(=O)NCCCC[C@H](NC(=O)N[C@@H](CCC(=O)O)C(=O)O)C(=O)O)C(=O)O)CC[N]2CC(C)(C)[S][Tc]2(=[O])[S]1 (stereo partly drawn) [technetium-99m labelled] | LNCaP |  |  | 25 nM, 1 h, 4 °C |  | internalized activity | 0.52 ± 0.32 %AD/mg protein |
| Cc1cc(Nc2ncc(Cl)c(Nc3ccccc3S(=O)(=O)C(C)C)n2)c(OC(C)C)cc1C1CCNCC1 | CLB-GE | phosphoproteomics LC-MS/MS, measured: FRS2 phosphorylation |  | 200 nM, 60 min | baseline: untreated | log2 fold change | -2.2 |
| NC(=O)C1CCCc2c1[nH]c1ccc(Cl)cc21 (racemic) | HBL-1 |  |  | 0.1 µM, 120 h |  | viability | 125% |
| COc1cc(/C=C/C(=O)N2CCC=CC2=O)cc(OC)c1OC | MDA-MB-468 | quantitative RT-PCR, measured: GSS |  | 30 µM, 8 h | baseline: untreated cells | mRNA level | 119 ± 5.8% |
| O=C1NC(=O)c2c1c1c3ccccc3[nH]c1c1[nH]c3cc(Br)ccc3c21 | HeLa expressing Ub(G76V)-GFP | Ub(G76V)-GFP degradation, cycloheximide chase |  | 12 µM |  | inhibition | -6% |
| COc1ccc(Cn2ccc3ccc(C(=O)NO)cc32)cc1 | HBL-1 |  |  | 1 µM, 120 h |  | viability | 107% |
| Cn1cc(-c2ccc(-c3cncc(Cl)c3N3CCC4(CCNC4=O)CC3)cc2)cn1 | COLO 205 | gene expression, microarray, measured: CYP27B1 mRNA |  | concentration not given, 6 h | baseline: untreated cells | log2 fold change | 1.86 |
| CC(C)(C)OC(=O)Nc1ccc(-c2cc(C(=O)NCCCCCCC(=O)NO)no2)cc1 | HBL-1 |  |  | 0.1 µM, 120 h |  | viability | 10.7% |
| CCS(=O)(=O)c1nc(C2CC2)cc(C(F)(F)F)n1 | HeLa Kyoto | RelA nuclear import, high content imaging |  | 0.02 µM, 3 h, together with: 1 µM PMA, 60 min |  | cells with nuclear RelA | 66.5% and 77.7% |
| CCCCCCOC(=O)[C@]1(O)C[C@@H]2O[C@@]1(C)n1c3ccccc3c3c4c(c5c6ccccc6n2c5c31)C(=O)NC4 | SK-OV-3 | ATP | 3D gellan gum culture | 1 µM, 4 days | baseline: untreated | relative cell number | 67% |

| Compound | cell line | assay | system | conditions | how to read | endpoint | value |
| --- | --- | --- | --- | --- | --- | --- | --- |
| CC[S+]([O-])c1nc(-c2cccc(OCc3ccccc3)c2)cc(C(F)(F)F)n1 (stereo not drawn) | HeLa Kyoto | RelA nuclear import, high content imaging |  | 15.82 µM, 3 h, together with: 1 µM PMA, 60 min |  | cells with nuclear RelA | 5.76% and 1.44% |
| COc1cnc2cccc(N3CCc4c(cc(Cn5ccnc5C)cc4-c4cn(C)nc4C(F)(F)F)C3=O)c2c1 | HSC-3 | cell growth, inhibitor |  | 120 h |  | EC50 | > 30 µM |
| N#C/C(=C(/N)Sc1ccc(N)cc1)c1ccccc1C(F)(F)F | HeLa expressing Ub(G76V)-GFP | Ub(G76V)-GFP degradation, cycloheximide chase |  | 12 µM |  | inhibition | 15% |
| CN(C)c1ccc(C(=O)NCCCCCCC(=O)NO)cc1 | BT-12 | cell viability, MTT |  | 10 µM, 72 h |  | inhibition | 91.4% |
| CC(=O)Nc1ccc(C(=O)Nc2ccccc2N)cc1 | HBL-1 |  |  | 0.1 µM, 120 h |  | viability | 62% |
| O=C(c1cc2cc(O)ccc2[nH]1)c1cc2cc(O)ccc2[nH]1 | HeLa expressing Ub(G76V)-GFP | Ub(G76V)-GFP degradation, inhibitor, cycloheximide chase |  | 12 µM |  | inhibition | 28% |
| CCOc1nc(-c2cccc(O)c2)cc(-c2cc3cc(Cl)ccc3nc2N2CCOCC2)c1C#N | WI-38 | cell viability, MTT |  | 72 h |  | EC50 | 0.029 ± 0.002 µM |
| O=C1Nc2ccccc2/C1=C\c1c(Cl)[nH]c2ccccc12 | HeLa expressing Ub(G76V)-GFP | Ub(G76V)-GFP degradation, cycloheximide chase |  | 12 µM |  | inhibition | 44% |
| Nc1ncnc2c1ncn2[C@@H]1O[C@H](CSCC[C@H](N)C(=O)O)[C@@H](O)[C@H]1O | HBL-1 |  |  | 1 µM, 120 h |  | viability | 94.9% |
| Cl.Cl.O=S(=O)(c1cccc2cnccc12)N1CCCNCC1 | HeLa expressing Ub(G76V)-GFP | Ub(G76V)-GFP degradation, cycloheximide chase |  | 12 µM |  | inhibition | -1% |
| CC(=O)Nc1cccc(-n2c(=O)n(C3CC3)c(=O)c3c(Nc4ccc(I)cc4F)n(C)c(=O)c(C)c32)c1 | NCI-H2087 (BRAF L597V) |  |  | 6.25 nM | baseline: DMSO | fractional effect | 0.477 |
| O=C(/C=C/C=C/C=C/C1CCCCC1)NC1=C[C@@](O)(/C=C/C=C/C=C/C(=O)NC2=C(O)CCC2=O)[C@@H]2O[C@@H]2C1=O | HCC4006 | cell growth, CellTiter-Glo |  | 78 h |  | GI50 | 15.2 µM |
| COc1cccc2c1C(=O)c1c(O)c3c(c(O)c1C2=O)C[C@@](O)(C(=O)CO)C[C@@H]3O[C@H]1C[C@H](N)[C@H](O)[C@H](C)O1 | HepG2 | CellTiter-Glo, measured: cellular ATP |  | 24 h, distribution mode 1 |  | point of departure | 0.0174 µM |
| CCCN1CCN(c2ccc3nc(-c4ccc5nc(-c6cc(OC)ccc6OC)[nH]c5c4)[nH]c3c2)CC1 | Hs-578T | SRB |  | 10 µM, 48 h |  | growth percent | 111% |
| O=C(Nc1c[nH]nc1-c1nc2ccc(CN3CCOCC3)cc2[nH]1)NC1CC1 | BT-12 | cell viability, MTT |  | 10 µM, 72 h |  | inhibition | 94.1% |
| CC/C(=N\NC(=O)NCc1cccc(O)c1)c1ccc(O)c(C)c1O | SK-OV-3 | Western blot, measured: phospho-YAP |  | 1 µM, 1 h, 3D culture, gellan gum, unit not given | baseline: total YAP | protein level | 0.63 ± 0.25 |
| CCn1cc(-c2cc(Cn3ccoc3=N)cc3c2CCN([C@@H](C)c2cc(OC)ccn2)C3=O)c(C(F)(F)F)n1 | NCI-H2087 | cell growth, inhibitor |  | 120 h |  | EC50 | 1.03 µM |
| COc1ccc(NC(=S)N/N=C/c2cccc3cc4ccccc4nc23)cc1 | HeLa | PI flow cytometry |  | IC25, 48 h |  | S phase cells | 26 ± 0.4% |
| CCC[C@H](NC(=O)/C(C#N)=C/c1cccc(Br)n1)c1ccccc1 | BT-12 | cell viability, MTT |  | 10 µM, 72 h |  | inhibition | 93.6% |
| Cn1sc(=O)n(Cc2ccccc2)c1=O | HeLa expressing Ub(G76V)-GFP | Ub(G76V)-GFP degradation, cycloheximide chase |  | 12 µM |  | inhibition | 98% |
| CCn1cc(-c2cc(Cn3ccnc3)cc3c2CCN([C@H](c2cc(OC)ccn2)C2CC2)C3=O)c(C(F)(F)F)n1 | NCI-H2087 | cell growth, inhibitor |  | 120 h |  | EC50 | > 30 µM |
| COc1cccc2c1C(=O)c1c(O)c3c(c(O)c1C2=O)C[C@@](O)(C(=O)CO)C[C@@H]3O[C@H]1C[C@H](N)[C@H](O)[C@H](C)O1 | A2058 | WST-1 |  | concentration not given, 72 h, highest tested concentration |  | maximal cytotoxicity | 97.7% |
| Clc1nc(NCc2ccco2)c2[nH]cnc2n1 | iPSC-derived cardiomyocytes | RNA-seq, measured: ABCB4 chr7 exon ending 87412033 |  | unit not given | baseline: DMSO minus compound | ΔPSI | -0.454 |
| Nc1nc(S)nc(O)c1N=Cc1cn(-c2ccccc2)nc1-c1ccc(Cl)cc1 | CCRF-CEM | flow cytometry |  | CC20 or CC30, 72 h |  | cells in S phase | 23.4% |
| NC(=O)NOCCCCCCCCCCCC[P+](c1ccccc1)(c1ccccc1)c1ccccc1.O=C([O-])C(F)(F)F | mouse CD4 T cells, reporter | IFNγ-YFP expression, flow cytometry |  | 144 h |  | concentration at maximal effect | 10 µM |
| CC1=CC(=O)CC(C)(C)[C@@]1(O)/C=C/C(C)=C\C(=O)O | HBL-1 |  |  | 1 µM, 120 h |  | viability | 65.1% |
| Cn1c(Nc2nc3ccc(C(F)(F)F)cc3s2)nc2cc(C(=O)NCCOCCO)ccc21 | SH-SY5Y | RNA-seq, measured: GREM1 mRNA |  | 5 µM, 5 h | baseline: untreated cells | fold change | 2.34 |
